Measured values from different studies.
Protocols differ between the studies behind these lines. Numbers after ± are the reported error.
GSTO1: Glutathione S-transferase omega-1 (GSTO1, Homo sapiens, UniProt P78417)
GLO1: Lactoylglutathione lyase (GLO1, Homo sapiens, UniProt Q04760)

With `Oc1ccc(CCC(O)CC(O)CCc2ccc(O)cc2)cc1` (stereo not shown) the inhibition was 67.4 ± 6.5% (Maob (Rattus norvegicus, UniProt P19643); enzyme activity, inhibitor; 100 µg/mL).
With `COc1cc(C(=O)NC2CCC(N3CCN(CC4CCC5(CCCC5)C4)CC3)CC2)c(F)cc1Nc1ncc2c(n1)N(C1CCCC1(F)F)CC(F)(F)C(=O)N2C` (stereo not shown) the inhibition was 0.61% (PDGFRA (Homo sapiens, UniProt P16234); cell-free assay, TR-FRET; 10 µM).
With `CCOc1c(C(C)(C)O)sc2cnc(Nc3ccc(N4CCC(N5CC6(COC6)C5)CC4)cc3OC)nc12` the inhibition was 99% (CAMK2D (Homo sapiens, UniProt Q13557); enzyme activity, inhibitor; 0.1 µM).
With `COC(=O)CCSc1nc2n(n1)C(c1cccc(OC)c1)C(C(=O)Nc1cncc(C)c1)=C(C)N2` (stereo not shown) the inhibition was 67.2% (MTOR (Homo sapiens, UniProt P42345); enzyme activity, inhibitor, TR-FRET; 30 nM).
With `COc1ccc(N(CCNC(=O)C(F)(F)F)C(=O)CCl)cc1` the inhibition was 20% (GSTO1; probe labelling, gel-based competitive ABPP; MDA-MB-435 soluble proteome; 100 nM, together with: SE-Rh probe).
For `Nc1ccc(/N=N/c2ccc(S(N)(=O)=O)cc2)c2ccccc12`, the inhibition was 78.2% (GLO1; enzyme activity, inhibitor; 25 µM).
The inhibition of `O=C(O)CN(c1ccc(N(CC(=O)O)S(=O)(=O)c2ccccc2)cc1)S(=O)(=O)c1ccccc1` is reported as < 50% (Kelch-like ECH-associated protein 1, Kelch domain (KEAP1, Homo sapiens, UniProt Q14145); Keap1-Nrf2 interaction, inhibitor, fluorescence polarisation; 50 µM).
`O=C(O)c1c(O)c(/N=N/c2ccccc2)cc2ccccc12` has an inhibition of 75.1% (GLO1; enzyme activity, inhibitor; 25 µM).
For `CC[C@H](C)[C@H](NC(=O)[C@H](CCCNC(=N)N)NC(=O)[C@H](CCCCN)NC(=O)[C@@H]1CCCN1C(=O)[C@H](CO)n1cc(CN(CC[C@H](N)C(=O)O)C[C@H]2O[C@@H](n3cnc4c(N)ncnc43)[C@H](O)[C@@H]2O)nn1)C(=O)N[C@@H](C)C(N)=O`, the inhibition was < 15% (PRMT1 (Homo sapiens, UniProt Q99873); enzyme activity, inhibitor, fluorescence; 50 µM).
For `O=C(NC1CCCCC1)C(c1cccnc1)N(C(=O)CCl)c1ccc(F)cc1` (racemic), the inhibition was 100% (GSTO1; probe labelling, gel-based competitive ABPP; MDA-MB-435 soluble proteome; 1000 nM, together with: SE-Rh probe).

Some of these lines once more:
`O=C(O)c1c(O)c(/N=N/c2ccccc2)cc2ccccc12` has an inhibition of 75.1% (GLO1; enzyme activity, inhibitor; 25 µM).
